Measured values gathered from unrelated publications.
Compare with care: the assays were run in different laboratories. Numbers after ± are the reported error.
Cnr2: Cannabinoid receptor 2 (Cnr2, Mus musculus, UniProt P47936)
STING1 H232R: Stimulator of interferon genes protein (STING1, Homo sapiens, UniProt Q86WV6, H232R)

Structure (SMILES) = CC1=NC(C)C(C)S1 (centres unmarked); target = OR5K1 (Homo sapiens, UniProt Q8NHB7, A2T/T15M/Y193C); test = cAMP, agonist; EC50 = 1480 µM
Structure (SMILES) = COc1ccc(C(=O)c2c(C(=O)NCCCN(C)C)oc3ccc(Cl)cc3c2=O)cc1OC; target = Growth hormone secretagogue receptor type 1 (GHSR, Homo sapiens, UniProt Q92847, R199A); test = intracellular Ca2+, agonist; test system = HEK293T transiently transfected; EC50 = 0.107 µM
Structure (SMILES) = NCC(=O)N[C@H](Cc1ccccc1)C(=O)N[C@@H](Cc1ccccc1)C(N)=O; target = uncharacterized protein (Aplysia californica, UniProt A0ABM0K1K5); test = IP1 accumulation, agonist; test system = CHO-K1 cells, transfected; conditions = inactive, value is lower bound; EC50 = > 501 µM
Structure (SMILES) = CCOC(=O)[C@](CC)(CCCSCCOCCOCCNC(=O)CCCCCN1C(=CC=CC=CC2=[N+](C)c3ccc4ccccc4c3C2(C)C)C(C)(C)c2c1ccc1ccccc21)NC(=O)c1ccc(C2CC2)c(Cc2ccc(F)cc2)n1; target = Cnr2; test = cAMP, agonist; EC50 = 0.512 µM
Structure (SMILES) = CC[C@H](C)[C@@H](C(=O)N[C@@H](CC(C)C)C(=O)N[C@@H](CO)C(=O)N[C@@H](CO)C(=O)N[C@H](C(=O)N[C@@H](CCC(=O)O)C(=O)N[C@H](C(=O)NCC(=O)N[C@@H](CO)C(=O)N[C@@H](CC(N)=O)C(=O)N[C@H](C(=O)N1C[C@H](O)C[C@H]1C(N)=O)[C@@H](C)O)C(C)C)[C@@H](C)O)N(C)C(=O)[C@H](C)NC(=O)CN(C)C(=O)[C@H](Cc1ccccc1)NC(=O)[C@H](CO)NC(=O)[C@H](CO)NC(=O)[C@H](CCCNC(=N)N)NC(=O)[C@H](CCC(N)=O)NC(=O)[C@H](CC(C)C)NC(=O)[C@H](Cc1ccccc1)NC(=O)[C@H](Cc1c[nH]cn1)NC(=O)[C@H](C)NC(=O)[C@H](CC(C)C)NC(=O)[C@H](CCCNC(=N)N)NC(=O)[C@H](CCC(=O)O)NC(=O)[C@@H](NC(=O)[C@H](C)NC(=O)[C@@H]1CC(=O)NC[C@H](NC(=O)[C@H](CCCNC(=N)N)NC(=O)CC[C@H](NC(=O)CCCCCCCCCCCCCCCCCCC(=O)O)C(=O)O)C(=O)NCC(=O)N[C@@H]([C@@H](C)O)C(=O)N[C@@H](C)C(=O)N[C@@H]([C@@H](C)O)C(=O)N1)[C@@H](C)O; target = Amylin receptor AMY3; CALCR/RAMP3 (Homo sapiens, UniProt O60896+P30988); test = cAMP accumulation, agonist; test system = COS-7 expressing AMY3 receptor; EC50 = > 10 µM
Structure (SMILES) = Cc1cc(NC(=O)c2cccc(N)c2)ccc1Nc1nccc(-c2cccnc2)n1; target = Mitogen-activated protein kinase 8 (MAPK8, Homo sapiens, UniProt P45983); test = binding, NanoBRET target engagement; test system = HEK293 live cells; conditions = 2 h, with: tracer K-5; EC50 = ~0.5 µM
Structure (SMILES) = O=S(=O)(c1ccc2c(c1)OCO2)n1cc(CCCCN2CCC(=C(c3ccc(F)c(F)c3)c3ccc(F)c(F)c3)CC2)nn1; target = ATP-dependent 6-phosphofructokinase, liver type (PFKL, Homo sapiens, UniProt P17858); test = enzyme activity, activator, ADP-Glo; conditions = 4; EC50 = 0.342 µM
Structure (SMILES) = Cn1cncc1-c1ccc(C(=O)N[C@@H](CCCCNC(=O)c2ccc([N+](=O)[O-])o2)c2nc3ccccc3[nH]2)cc1; target = STING1 H232R; test = reporter gene, inhibitor; test system = THP1-Dual KI-hSTING-R232; conditions = 24 h, 1 h preincubation, with: diABZI 500 nM; EC50 = 17.6 µM
Structure (SMILES) = CCCCCCCC/C=C\CCCCCCCC(=O)OCC(O)COP(=O)(O)O (centres unmarked); target = Lysophosphatidic acid receptor 1 (LPAR1, Homo sapiens, UniProt Q92633); test = G protein activation, agonist, BRET; EC50 = 0.0178 µM
Structure (SMILES) = CCOC(=O)C(CC)(CCCSCCOCCOCCNC(=O)OC(C)(C)C)NC(=O)c1ccc(C2CC2)c(Cc2ccc(F)cc2)n1 (racemic); target = Cnr2; test = cAMP, agonist; EC50 = 0.131 µM
Structure (SMILES) = O=C(N[C@@H](CCCCNC(=O)c1ccc([N+](=O)[O-])o1)c1nc2ccccc2[nH]1)c1ccc(-c2ccccc2)nn1; target = STING1 H232R; test = reporter gene, inhibitor; test system = THP1-Dual KI-hSTING-R232; conditions = 24 h, 1 h preincubation, with: diABZI 500 nM; EC50 = 4.3 µM
Structure (SMILES) = CC[C@H](C)[C@H](NC(=O)[C@H](Cc1ccccc1)NC(=O)[C@H](CCC(=O)O)NC(=O)[C@H](CCCCN)NC(=O)[C@H](C)NC(=O)[C@H](C)NC(=O)[C@H](CCC(N)=O)NC(=O)[C@H](CCC(=O)O)NC(=O)[C@H](CC(=O)O)NC(=O)[C@H](CC(C)C)NC(=O)[C@H](Cc1ccc(O)cc1)NC(=O)[C@H](CCCCN)NC(=O)[C@H](CO)NC(=O)[C@H](Cc1ccc(O)cc1)NC(=O)[C@H](CC(=O)O)NC(=O)[C@H](CO)NC(=O)[C@@H](NC(=O)[C@H](Cc1ccccc1)NC(=O)[C@@H](NC(=O)CNC(=O)[C@H](CCC(N)=O)NC(=O)[C@H](CO)NC(=O)[C@@H](N)Cc1cnc[nH]1)[C@@H](C)O)[C@@H](C)O)C(=O)N[C@@H](C)C(=O)N[C@@H](Cc1c[nH]c2ccccc12)C(=O)N[C@@H](CC(C)C)C(=O)N[C@@H](CCSC)C(=O)N[C@@H](CC(N)=O)C(=O)N[C@H](C(N)=O)[C@@H](C)O; target = Glucagon receptor (GCGR, Homo sapiens, UniProt P47871); test = cAMP, agonist, TR-FRET; EC50 = 7.24e-05 µM
Structure (SMILES) = CCOC(=O)[C@@](CC)(CCCSCCOCCOCCN)NC(=O)c1ccc(C2CC2)c(Cc2ccc(F)cc2)n1; target = Cnr2; test = cAMP, agonist; EC50 = 0.424 µM
Structure (SMILES) = O=C(N[C@@H](CCCCNC(=O)c1ccc([N+](=O)[O-])o1)c1nc2ccccc2[nH]1)c1ccc(-c2nnco2)cc1; target = STING1 H232R; test = reporter gene, inhibitor; test system = THP1-Dual KI-hSTING-R232; conditions = 24 h, 1 h preincubation, with: diABZI 500 nM; EC50 = 14.4 µM
Structure (SMILES) = CCOC(=O)C(CC)(CCCSCCOCCOCCOCCN)NC(=O)c1ccc(C2CC2)c(Cc2ccc(F)cc2)n1 (centres unmarked); target = Cnr2; test = cAMP, agonist; EC50 = 0.014 µM
Structure (SMILES) = CC(C)(C)c1ccc(-c2ccc(C(=O)N[C@@H](CCNC(=O)c3ccc([N+](=O)[O-])o3)c3nc4ccccc4[nH]3)o2)cc1; target = STING1 H232R; test = reporter gene, inhibitor; test system = THP1-Dual KI-hSTING-R232; conditions = 24 h, 1 h preincubation, with: diABZI 500 nM; EC50 = 4.9 µM
Structure (SMILES) = CCOC(=O)C(CC)(CCCSCCOCCOCCOCCNc1ccc([N+](=O)[O-])c2nonc12)NC(=O)c1ccc(C2CC2)c(Cc2ccc(F)cc2)n1 (centres unmarked); target = Cnr2; test = cAMP, agonist; EC50 = 0.074 µM
Structure (SMILES) = O=C(NCC[C@H](NC(=O)[C@H]1C[C@H](c2ccccc2)C1)c1nc2ccccc2[nH]1)c1ccc([N+](=O)[O-])o1; target = STING1 H232R; test = reporter gene, inhibitor; test system = THP1-Dual KI-hSTING-R232; conditions = 24 h, 1 h preincubation, with: diABZI 500 nM; EC50 = 6.4 µM
Structure (SMILES) = O=C(Nn1c(-c2cccc(Cl)c2)nc2ccccc2c1=O)c1ccccc1F; target = TRPM channel TRPM_PZQ (Fasciola hepatica, UniProt A0A4E0RBW4); test = whole-cell inward current, activator, automated patch clamp; test system = HEK293; EC50 = 3.08 ± 0.58 µM
Structure (SMILES) = N=C(c1ccc([N+](=O)[O-])o1)N1CCC(NC(=O)c2noc(-c3cc(F)ccc3F)n2)(c2nc3ccccc3[nH]2)CC1; target = STING1 H232R; test = reporter gene, inhibitor; test system = THP1-Dual KI-hSTING-R232; conditions = 24 h, 1 h preincubation, with: diABZI 500 nM; EC50 = 3.6 µM
Structure (SMILES) = CCOC(=O)C(CC)(CCCSCCOCCOCCOCCOCCNc1ccc([N+](=O)[O-])c2nonc12)NC(=O)c1ccc(C2CC2)c(Cc2ccc(F)cc2)n1 (centres unmarked); target = Cnr2; test = cAMP, agonist; EC50 = 0.192 µM
Structure (SMILES) = COc1cc(C2C(NC(=O)c3ccc(NC(=O)OC(C)(C)C)cc3)(C(=O)O)C(c3ccc(OC(=O)c4cccs4)c(OC)c3)C2(NC(=O)c2ccc(NC(=O)OC(C)(C)C)cc2)C(=O)O)ccc1OC(=O)c1cccs1 (centres unmarked); target = Glucagon-like peptide 1 receptor (GLP1R, Homo sapiens, UniProt P43220, V229A); test = cAMP, agonist; EC50 = 0.195 µM
Structure (SMILES) = CC#Cc1ccc(C(=O)N[C@@H](CCNC(=O)c2ccc([N+](=O)[O-])o2)c2nc3ccccc3[nH]2)cc1; target = STING1 H232R; test = reporter gene, inhibitor; test system = THP1-Dual KI-hSTING-R232; conditions = 24 h, 1 h preincubation, with: diABZI 500 nM; EC50 = 8.6 µM
Structure (SMILES) = O=C(NC[C@@H](Cc1ccc(F)cc1)N1CCC(O)(C(F)(F)F)CC1)C1(c2ccc(Cl)cc2)CCCC1; target = Transient receptor potential cation channel subfamily A member 1 (TRPA1, Homo sapiens, UniProt O75762, I950V); EC50 = 0.014 µM
Structure (SMILES) = Cn1c(C2(NC(=O)c3ccc(-c4ccccc4)cc3)CCN(C(=O)c3ccc([N+](=O)[O-])o3)CC2)nc2ccccc21; target = STING1 H232R; test = reporter gene, inhibitor; test system = THP1-Dual KI-hSTING-R232; conditions = 24 h, 1 h preincubation, with: diABZI 500 nM; EC50 = > 40 µM
Structure (SMILES) = CC1CCc2nccnc21 (centres unmarked); target = OR5K1 (Homo sapiens, UniProt Q8NHB7); test = cAMP, agonist; EC50 = > 1500 µM
